Measurements gathered from unrelated publications.
Compare with care: the assays were run in different laboratories. Numbers after ± are the reported error. Values after ≈ are worked out from the molar mass of the structure shown.
Organism: Escherichia coli

With `CC[C@H](C)[C@H](NC(=O)[C@H](CC1CCCCC1)NC(=O)[C@@H](CC(C)C)NC(=O)[C@@H](N)CCCN)C(=O)N[C@H](Cc1ccccc1)C(=O)N[C@@H](Cc1cn(Cc2ccccc2)cn1)C(N)=O` the IC50 was > 20 µg/mL (bacterial growth; ATCC 35218).
Under “MIC fold change”, `CC[C@H](C)[C@H](NC(=O)[C@H](CCCN)NC(=O)[C@H](CC(N)=O)NC(=O)[C@H](Cc1c[nH]c2ccccc12)NC(=O)[C@H](Cc1ccccc1)NC(=O)[C@H](CCCN)NC(=O)[C@H](CCCCNC(=N)N)NC(=O)[C@H](CC(C)C)NC(=O)[C@H](Cc1c[nH]c2ccccc12)NC(=O)[C@H](CCCN)NC(=O)[C@H](CCCCNC(=N)N)NC(=O)[C@H](CC(C)C)NC(=O)CNC(C)=O)C(=O)N[C@@H](CCCN)C(=O)N[C@@H](CCCCNC(=N)N)C(N)=O` is recorded as 1 fold (ATCC 25922; concentration not given, together with: KCl 4.5 mM; baseline: no added salt).
`N=C(N)NCCC[C@@H]1NC(=O)[C@H](CCCNC(=N)N)NC(=O)[C@@H](CCCNC(=N)N)NC(=O)[C@@H](CCCNC(=N)N)NC(=O)[C@@H](C(c2ccccc2)c2ccccc2)NC(=O)[C@H](Cc2c[nH]c3ccccc23)NC(=O)[C@@H](C(c2ccccc2)c2ccccc2)NC1=O`: “biofilm mass reduction” 41 to 49% (ATCC BAA-2452; 1 x MIC, 24 h, preformed biofilm).
For `CC(C)C1=CC2=CCC3C(C)(C(=O)OCCC[N+](C)(C)C)CCCC3(C)C2CC1` (centres unmarked), the inhibition zone was 12 mm (microbial growth, disc diffusion; ATCC25922; 250 µg/disc, 24 h).
With `COc1c(C)c(O)c(C(=O)C=Cc2ccccc2)c(OC)c1C` the MBC was > 5000 µg/mL (microbial killing, broth dilution; ATCC25922).
`CC(C)c1ccc2c(c1)CCC1C(C)(CN(CC(O)C[N+](C)(C)C)CC(O)C[N+](C)(C)C)CCCC21C` (centres unmarked) gave an inhibition zone of 11 mm (microbial growth, disc diffusion; ATCC25922; 250 µg/disc, 24 h).
The inhibition of `CO[C@@H]1[C@@H](OC)[C@H]2O[C@H]3[C@H](OC)[C@@H](OC)[C@@H](O[C@H]4[C@H](OC)[C@@H](OC)[C@@H](O[C@H]5[C@H](OC)[C@@H](OC)[C@@H](O[C@H]6[C@H](OC)[C@@H](OC)[C@@H](O[C@H]7[C@H](OC)[C@@H](OC)[C@@H](O[C@H]8[C@H](OC)[C@@H](OC)[C@@H](O[C@@H]1[C@@H](Cn1cc(CCCC(=O)N[C@H]9CCOC9=O)nn1)O2)O[C@@H]8Cn1cc(CCCC(=O)N[C@H]2CCOC2=O)nn1)O[C@@H]7Cn1cc(CCCC(=O)N[C@H]2CCOC2=O)nn1)O[C@@H]6Cn1cc(CCCC(=O)N[C@H]2CCOC2=O)nn1)O[C@@H]5Cn1cc(CCCC(=O)N[C@H]2CCOC2=O)nn1)O[C@@H]4Cn1cc(CCCC(=O)N[C@H]2CCOC2=O)nn1)O[C@@H]3Cn1cc(CCCC(=O)N[C@H]2CCOC2=O)nn1` is reported as 15 ± 1% (LuxR reporter, antagonist; DH5α sensor strain; 10 µM, together with: OHHL 200 nM).
`COc1ccc2cc3[n+](cc2c1OC)CCc1cc2c(cc1-3)OCO2.[Cl][Fe-]([Cl])([Cl])[Cl]` gave an MBC of > 800 µM (24 h, 37 °C).
`O=c1c(O)ccccc1Br` gave an MIC80 of 66.7 µM (≈ 13.4 µg/mL) (microbial growth, broth dilution; ATCC35218).
`O=C(CCCc1cn(C[C@H]2O[C@@H]3O[C@H]4[C@H](O)[C@@H](O)[C@@H](O[C@H]5[C@H](O)[C@@H](O)[C@@H](O[C@H]6[C@H](O)[C@@H](O)[C@@H](O[C@H]7[C@H](O)[C@@H](O)[C@@H](O[C@H]8[C@H](O)[C@@H](O)[C@@H](O[C@H]9[C@H](O)[C@@H](O)[C@@H](O[C@H]2[C@H](O)[C@H]3O)O[C@@H]9CO)O[C@@H]8CO)O[C@@H]7CO)O[C@@H]6CO)O[C@@H]5CO)O[C@@H]4CO)nn1)N[C@H]1CCOC1=O` has an inhibition of 3 ± 1% (LuxR reporter, antagonist; DH5α sensor strain; 1 µM, together with: OHHL 200 nM).
`CC(CCCOC(=O)CCC[N+](C)(C)C)C1CCC2C3C(OC(=O)CCC[N+](C)(C)C)CC4CC(OC(=O)CCC[N+](C)(C)C)CCC4(C)C3CC(OC(=O)CCC[N+](C)(C)C)C12C` (centres unmarked) gave an inhibition zone of 10 mm (microbial growth, disc diffusion; ATCC25922; 250 µg/disc, 24 h).
With `Cc1cccc(C(=O)Oc2cccccc2=O)c1` the MIC80 was > 100 µM (microbial growth, broth dilution; ATCC35218).
With `CCCCCCCC(=O)Oc1c(C)c(OC)c2c(/C=C/c3ccccc3)c(CCCCCC)c(=O)oc2c1C` the MBC was > 5000 µg/mL (microbial killing, broth dilution; ATCC25922).
`[Cl-].[Cl][Ru-4]123([n+]4ccccc4-c4cccc([n+]41)-c1cccc[n+]12)[n+]1ccc(-c2ccccc2)c2ccc4c(-c5ccccc5)cc[n+]3c4c21` has a cellular uptake of 11.7% (ICP-MS; 20 µM, 24 h).
The MIC80 of `O=C(Oc1cccccc1=O)c1ccccc1` is reported as > 100 µM (microbial growth, broth dilution; ATCC35218).
`OC[C@H]1O[C@@H]2O[C@H]3[C@H](O)[C@@H](O)[C@@H](O[C@H]4[C@H](O)[C@@H](O)[C@@H](O[C@H]5[C@H](O)[C@@H](O)[C@@H](O[C@H]6[C@H](O)[C@@H](O)[C@@H](O[C@H]7[C@H](O)[C@@H](O)[C@@H](O[C@H]1[C@H](O)[C@H]2O)O[C@@H]7CO)O[C@@H]6CO)O[C@@H]5CO)O[C@@H]4CO)O[C@@H]3CO` gave an inhibition of -1 ± 2% (LuxR reporter bioluminescence, antagonist; DH5α sensor strain; 200 µM, together with: OHHL 200 nM).
`CC[C@H]1OC(=O)[C@H](C)[C@@H](OC(=O)Cc2ccc3c(c2)OCO3)[C@H](C)[C@@H](O[C@@H]2O[C@H](C)C[C@H](N(C)C)[C@H]2O)[C@](C)(OC)C[C@@H](C)C(=O)[C@H](C)[C@@H](O)[C@]1(C)O` gave an MIC of 16 µM (≈ 12 µg/mL) (DSM 30083; together with: colistin sulfate at 0.1 x MIC).
With `CO[C@@H]1[C@@H](OC)[C@H]2O[C@H]3[C@H](OC)[C@@H](OC)[C@@H](O[C@H]4[C@H](OC)[C@@H](OC)[C@@H](O[C@H]5[C@H](OC)[C@@H](OC)[C@@H](O[C@H]6[C@H](OC)[C@@H](OC)[C@@H](O[C@H]7[C@H](OC)[C@@H](OC)[C@@H](O[C@@H]1[C@@H](Cn1cc(CCCC(=O)N[C@H]8CCOC8=O)nn1)O2)O[C@@H]7Cn1cc(CCCC(=O)N[C@H]2CCOC2=O)nn1)O[C@@H]6Cn1cc(CCCC(=O)N[C@H]2CCOC2=O)nn1)O[C@@H]5Cn1cc(CCCC(=O)N[C@H]2CCOC2=O)nn1)O[C@@H]4Cn1cc(CCCC(=O)N[C@H]2CCOC2=O)nn1)O[C@@H]3Cn1cc(CCCC(=O)N[C@H]2CCOC2=O)nn1` the inhibition was 8 ± 5% (LuxR reporter, antagonist; DH5α sensor strain; 10 µM, together with: OHHL 200 nM).
`Cc1ccnc(-c2cc(C(=O)NCCCCCC(=O)N[C@@H](CCCNC(=N)N)C(=O)N[C@@H](Cc3c[nH]c4ccccc34)C(=O)N[C@@H](CCCNC(=N)N)C(=O)N[C@@H](Cc3c[nH]c4ccccc34)C(=O)N[C@@H](CCCNC(=N)N)C(=O)N[C@@H](Cc3c[nH]c4ccccc34)C(N)=O)ccn2)c1` — result for “reduction in viable count”: ≥ 3 log10 CFU (susceptible; 16 µM, light irradiation).
For `O=C(CCCc1cn(C[C@H]2O[C@@H]3O[C@H]4[C@H](O)[C@@H](O)[C@@H](O[C@H]5[C@H](O)[C@@H](O)[C@@H](O[C@H]6[C@H](O)[C@@H](O)[C@@H](O[C@H]7[C@H](O)[C@@H](O)[C@@H](O[C@H]8[C@H](O)[C@@H](O)[C@@H](O[C@H]9[C@H](O)[C@@H](O)[C@@H](O[C@H]2[C@H](O)[C@H]3O)O[C@@H]9Cn2cc(CCCC(=O)N[C@H]3CCOC3=O)nn2)O[C@@H]8Cn2cc(CCCC(=O)N[C@H]3CCOC3=O)nn2)O[C@@H]7Cn2cc(CCCC(=O)N[C@H]3CCOC3=O)nn2)O[C@@H]6Cn2cc(CCCC(=O)N[C@H]3CCOC3=O)nn2)O[C@@H]5Cn2cc(CCCC(=O)N[C@H]3CCOC3=O)nn2)O[C@@H]4Cn2cc(CCCC(=O)N[C@H]3CCOC3=O)nn2)nn1)N[C@H]1CCOC1=O`, the inhibition was 17 ± 18% (LuxR reporter, antagonist; DH5α sensor strain; 1 µM, together with: OHHL 200 nM).
`CCCC(=O)Oc1c(C)c(OC)c2c(c1C)OC(=O)[C@@H](CC)[C@]2(O)/C=C/c1ccccc1` (racemic) gave an MBC of > 5000 µg/mL (microbial killing, broth dilution; ATCC25922).
The inhibition of `O=C(CCCc1cn(C[C@H]2O[C@@H]3O[C@H]4[C@H](O)[C@@H](O)[C@@H](O[C@H]5[C@H](O)[C@@H](O)[C@@H](O[C@H]6[C@H](O)[C@@H](O)[C@@H](O[C@H]7[C@H](O)[C@@H](O)[C@@H](O[C@H]8[C@H](O)[C@@H](O)[C@@H](O[C@H]2[C@H](O)[C@H]3O)O[C@@H]8Cn2cc(CCCC(=O)N[C@H]3CCOC3=O)nn2)O[C@@H]7Cn2cc(CCCC(=O)N[C@H]3CCOC3=O)nn2)O[C@@H]6Cn2cc(CCCC(=O)N[C@H]3CCOC3=O)nn2)O[C@@H]5Cn2cc(CCCC(=O)N[C@H]3CCOC3=O)nn2)O[C@@H]4Cn2cc(CCCC(=O)N[C@H]3CCOC3=O)nn2)nn1)N[C@H]1CCOC1=O` is reported as 32 ± 1% (LuxR reporter, antagonist; DH5α sensor strain; 200 µM, together with: OHHL 200 nM).
`CCCCCCCCCC(=O)Oc1c(C)c(OC)c2c(c1C)OC(=O)C(CCCCCCCC)C2(O)C=Cc1ccccc1` (centres unmarked) gave an inhibition zone of 11 mm (microbial growth, well diffusion; ATCC25922; 5 µg/mL).

Some of these lines once more:
Under “MIC fold change”, `CC[C@H](C)[C@H](NC(=O)[C@H](CCCN)NC(=O)[C@H](CC(N)=O)NC(=O)[C@H](Cc1c[nH]c2ccccc12)NC(=O)[C@H](Cc1ccccc1)NC(=O)[C@H](CCCN)NC(=O)[C@H](CCCCNC(=N)N)NC(=O)[C@H](CC(C)C)NC(=O)[C@H](Cc1c[nH]c2ccccc12)NC(=O)[C@H](CCCN)NC(=O)[C@H](CCCCNC(=N)N)NC(=O)[C@H](CC(C)C)NC(=O)CNC(C)=O)C(=O)N[C@@H](CCCN)C(=O)N[C@@H](CCCCNC(=N)N)C(N)=O` is recorded as 1 fold (ATCC 25922; concentration not given, together with: KCl 4.5 mM; baseline: no added salt).
For `O=C(CCCc1cn(C[C@H]2O[C@@H]3O[C@H]4[C@H](O)[C@@H](O)[C@@H](O[C@H]5[C@H](O)[C@@H](O)[C@@H](O[C@H]6[C@H](O)[C@@H](O)[C@@H](O[C@H]7[C@H](O)[C@@H](O)[C@@H](O[C@H]8[C@H](O)[C@@H](O)[C@@H](O[C@H]9[C@H](O)[C@@H](O)[C@@H](O[C@H]2[C@H](O)[C@H]3O)O[C@@H]9Cn2cc(CCCC(=O)N[C@H]3CCOC3=O)nn2)O[C@@H]8Cn2cc(CCCC(=O)N[C@H]3CCOC3=O)nn2)O[C@@H]7Cn2cc(CCCC(=O)N[C@H]3CCOC3=O)nn2)O[C@@H]6Cn2cc(CCCC(=O)N[C@H]3CCOC3=O)nn2)O[C@@H]5Cn2cc(CCCC(=O)N[C@H]3CCOC3=O)nn2)O[C@@H]4Cn2cc(CCCC(=O)N[C@H]3CCOC3=O)nn2)nn1)N[C@H]1CCOC1=O`, the inhibition was 17 ± 18% (LuxR reporter, antagonist; DH5α sensor strain; 1 µM, together with: OHHL 200 nM).
The inhibition of `CO[C@@H]1[C@@H](OC)[C@H]2O[C@H]3[C@H](OC)[C@@H](OC)[C@@H](O[C@H]4[C@H](OC)[C@@H](OC)[C@@H](O[C@H]5[C@H](OC)[C@@H](OC)[C@@H](O[C@H]6[C@H](OC)[C@@H](OC)[C@@H](O[C@H]7[C@H](OC)[C@@H](OC)[C@@H](O[C@H]8[C@H](OC)[C@@H](OC)[C@@H](O[C@@H]1[C@@H](Cn1cc(CCCC(=O)N[C@H]9CCOC9=O)nn1)O2)O[C@@H]8Cn1cc(CCCC(=O)N[C@H]2CCOC2=O)nn1)O[C@@H]7Cn1cc(CCCC(=O)N[C@H]2CCOC2=O)nn1)O[C@@H]6Cn1cc(CCCC(=O)N[C@H]2CCOC2=O)nn1)O[C@@H]5Cn1cc(CCCC(=O)N[C@H]2CCOC2=O)nn1)O[C@@H]4Cn1cc(CCCC(=O)N[C@H]2CCOC2=O)nn1)O[C@@H]3Cn1cc(CCCC(=O)N[C@H]2CCOC2=O)nn1` is reported as 15 ± 1% (LuxR reporter, antagonist; DH5α sensor strain; 10 µM, together with: OHHL 200 nM).
